Measured values of several laboratories.
A part holds a random share of what one study measured.
Sequence of UniProt P07333 (whole entry, looked up): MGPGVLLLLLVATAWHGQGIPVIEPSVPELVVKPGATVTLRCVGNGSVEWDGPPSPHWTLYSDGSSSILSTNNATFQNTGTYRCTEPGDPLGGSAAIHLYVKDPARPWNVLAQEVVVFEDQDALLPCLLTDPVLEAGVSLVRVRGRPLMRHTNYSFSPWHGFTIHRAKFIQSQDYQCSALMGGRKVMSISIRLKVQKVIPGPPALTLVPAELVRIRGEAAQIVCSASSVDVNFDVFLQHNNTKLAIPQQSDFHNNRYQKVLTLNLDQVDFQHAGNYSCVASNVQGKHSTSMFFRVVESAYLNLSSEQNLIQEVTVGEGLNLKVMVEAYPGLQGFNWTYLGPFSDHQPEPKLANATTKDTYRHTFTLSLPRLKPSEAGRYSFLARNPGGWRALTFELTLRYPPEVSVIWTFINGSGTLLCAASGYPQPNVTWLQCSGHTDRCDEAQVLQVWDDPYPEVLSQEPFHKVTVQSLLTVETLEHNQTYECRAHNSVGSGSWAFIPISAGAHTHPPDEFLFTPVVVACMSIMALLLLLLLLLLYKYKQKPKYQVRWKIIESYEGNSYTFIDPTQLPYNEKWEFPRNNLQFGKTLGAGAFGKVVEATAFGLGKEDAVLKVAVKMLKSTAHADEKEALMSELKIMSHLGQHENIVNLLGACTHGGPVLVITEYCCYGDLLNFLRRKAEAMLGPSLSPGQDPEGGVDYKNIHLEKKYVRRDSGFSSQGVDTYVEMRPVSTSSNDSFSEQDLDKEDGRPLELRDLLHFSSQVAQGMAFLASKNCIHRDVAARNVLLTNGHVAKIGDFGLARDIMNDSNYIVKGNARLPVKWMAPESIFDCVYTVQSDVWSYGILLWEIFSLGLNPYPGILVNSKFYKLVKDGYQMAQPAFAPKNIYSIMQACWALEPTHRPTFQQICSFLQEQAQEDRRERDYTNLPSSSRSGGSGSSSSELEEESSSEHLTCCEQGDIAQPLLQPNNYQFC
Sequence of UniProt O95382 (whole entry, looked up): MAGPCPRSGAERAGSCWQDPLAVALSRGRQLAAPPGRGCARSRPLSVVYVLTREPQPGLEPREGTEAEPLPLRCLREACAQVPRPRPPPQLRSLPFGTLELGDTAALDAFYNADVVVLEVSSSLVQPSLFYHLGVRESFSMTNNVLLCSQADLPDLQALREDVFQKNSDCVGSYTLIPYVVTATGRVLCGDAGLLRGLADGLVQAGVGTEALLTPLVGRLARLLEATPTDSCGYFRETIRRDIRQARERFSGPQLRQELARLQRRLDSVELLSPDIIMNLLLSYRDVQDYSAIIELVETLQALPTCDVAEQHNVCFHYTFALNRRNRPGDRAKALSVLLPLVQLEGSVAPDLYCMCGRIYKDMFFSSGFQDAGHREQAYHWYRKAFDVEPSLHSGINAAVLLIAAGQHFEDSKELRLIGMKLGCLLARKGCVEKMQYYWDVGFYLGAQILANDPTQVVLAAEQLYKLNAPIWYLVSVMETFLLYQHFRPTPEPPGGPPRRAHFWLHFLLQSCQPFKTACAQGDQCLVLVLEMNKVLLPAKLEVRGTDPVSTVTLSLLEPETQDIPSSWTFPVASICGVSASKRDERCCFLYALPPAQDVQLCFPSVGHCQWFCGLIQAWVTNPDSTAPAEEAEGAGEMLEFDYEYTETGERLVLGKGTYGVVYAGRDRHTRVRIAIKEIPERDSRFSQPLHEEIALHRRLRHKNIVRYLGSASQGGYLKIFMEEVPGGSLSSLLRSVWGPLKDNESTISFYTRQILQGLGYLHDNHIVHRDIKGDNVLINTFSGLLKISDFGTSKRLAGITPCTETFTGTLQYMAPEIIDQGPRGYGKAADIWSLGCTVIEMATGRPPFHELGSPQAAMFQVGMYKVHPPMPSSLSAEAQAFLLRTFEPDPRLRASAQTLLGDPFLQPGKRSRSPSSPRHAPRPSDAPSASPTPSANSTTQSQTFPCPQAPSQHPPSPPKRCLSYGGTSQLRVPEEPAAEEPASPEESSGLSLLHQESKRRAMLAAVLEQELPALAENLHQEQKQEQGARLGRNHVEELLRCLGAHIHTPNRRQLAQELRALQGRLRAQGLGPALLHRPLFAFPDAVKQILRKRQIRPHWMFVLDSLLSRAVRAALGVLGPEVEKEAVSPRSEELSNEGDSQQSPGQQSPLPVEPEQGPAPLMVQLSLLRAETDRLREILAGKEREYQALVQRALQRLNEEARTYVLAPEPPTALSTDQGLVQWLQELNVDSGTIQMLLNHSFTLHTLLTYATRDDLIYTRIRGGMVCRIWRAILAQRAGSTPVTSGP
Sequence of UniProt Q8NI60 (whole entry, looked up): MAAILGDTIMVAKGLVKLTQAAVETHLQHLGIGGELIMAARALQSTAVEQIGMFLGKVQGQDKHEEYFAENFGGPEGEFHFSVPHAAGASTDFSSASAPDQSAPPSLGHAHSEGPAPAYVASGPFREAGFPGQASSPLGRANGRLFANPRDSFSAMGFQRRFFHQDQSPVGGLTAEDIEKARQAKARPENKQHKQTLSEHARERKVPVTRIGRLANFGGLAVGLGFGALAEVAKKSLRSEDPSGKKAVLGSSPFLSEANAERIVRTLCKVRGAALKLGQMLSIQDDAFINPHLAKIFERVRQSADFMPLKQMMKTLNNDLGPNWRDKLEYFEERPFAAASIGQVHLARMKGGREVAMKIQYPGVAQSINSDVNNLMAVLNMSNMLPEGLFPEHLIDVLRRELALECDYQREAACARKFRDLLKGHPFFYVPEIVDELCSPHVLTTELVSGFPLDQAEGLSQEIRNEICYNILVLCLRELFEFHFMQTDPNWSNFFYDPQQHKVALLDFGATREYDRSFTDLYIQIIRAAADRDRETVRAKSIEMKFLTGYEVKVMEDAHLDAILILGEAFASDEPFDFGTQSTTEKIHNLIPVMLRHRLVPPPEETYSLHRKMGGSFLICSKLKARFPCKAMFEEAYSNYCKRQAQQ
Sequence of UniProt P27361 (whole entry, looked up): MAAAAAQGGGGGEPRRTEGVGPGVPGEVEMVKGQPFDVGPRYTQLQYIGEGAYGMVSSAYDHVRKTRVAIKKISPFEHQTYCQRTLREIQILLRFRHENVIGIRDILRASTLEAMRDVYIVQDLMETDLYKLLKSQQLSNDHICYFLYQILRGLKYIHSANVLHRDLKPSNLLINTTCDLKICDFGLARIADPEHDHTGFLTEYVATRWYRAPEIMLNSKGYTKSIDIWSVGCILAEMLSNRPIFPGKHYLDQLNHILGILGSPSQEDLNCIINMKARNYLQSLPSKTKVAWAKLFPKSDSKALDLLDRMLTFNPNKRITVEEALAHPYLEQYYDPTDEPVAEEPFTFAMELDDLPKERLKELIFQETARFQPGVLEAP
Sequence of UniProt P45984 (whole entry, looked up): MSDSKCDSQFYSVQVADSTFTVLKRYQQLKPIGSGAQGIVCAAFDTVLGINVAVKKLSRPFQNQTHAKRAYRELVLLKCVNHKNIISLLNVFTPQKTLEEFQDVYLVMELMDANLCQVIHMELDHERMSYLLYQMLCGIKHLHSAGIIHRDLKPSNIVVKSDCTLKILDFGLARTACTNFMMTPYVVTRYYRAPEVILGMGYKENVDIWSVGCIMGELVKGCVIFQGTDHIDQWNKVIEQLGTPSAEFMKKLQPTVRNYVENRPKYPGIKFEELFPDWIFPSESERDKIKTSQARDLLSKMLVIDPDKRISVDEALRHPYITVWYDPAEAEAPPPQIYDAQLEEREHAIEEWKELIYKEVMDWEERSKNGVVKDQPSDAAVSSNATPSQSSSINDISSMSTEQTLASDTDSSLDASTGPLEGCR
Sequence of UniProt Q12852 (whole entry, looked up): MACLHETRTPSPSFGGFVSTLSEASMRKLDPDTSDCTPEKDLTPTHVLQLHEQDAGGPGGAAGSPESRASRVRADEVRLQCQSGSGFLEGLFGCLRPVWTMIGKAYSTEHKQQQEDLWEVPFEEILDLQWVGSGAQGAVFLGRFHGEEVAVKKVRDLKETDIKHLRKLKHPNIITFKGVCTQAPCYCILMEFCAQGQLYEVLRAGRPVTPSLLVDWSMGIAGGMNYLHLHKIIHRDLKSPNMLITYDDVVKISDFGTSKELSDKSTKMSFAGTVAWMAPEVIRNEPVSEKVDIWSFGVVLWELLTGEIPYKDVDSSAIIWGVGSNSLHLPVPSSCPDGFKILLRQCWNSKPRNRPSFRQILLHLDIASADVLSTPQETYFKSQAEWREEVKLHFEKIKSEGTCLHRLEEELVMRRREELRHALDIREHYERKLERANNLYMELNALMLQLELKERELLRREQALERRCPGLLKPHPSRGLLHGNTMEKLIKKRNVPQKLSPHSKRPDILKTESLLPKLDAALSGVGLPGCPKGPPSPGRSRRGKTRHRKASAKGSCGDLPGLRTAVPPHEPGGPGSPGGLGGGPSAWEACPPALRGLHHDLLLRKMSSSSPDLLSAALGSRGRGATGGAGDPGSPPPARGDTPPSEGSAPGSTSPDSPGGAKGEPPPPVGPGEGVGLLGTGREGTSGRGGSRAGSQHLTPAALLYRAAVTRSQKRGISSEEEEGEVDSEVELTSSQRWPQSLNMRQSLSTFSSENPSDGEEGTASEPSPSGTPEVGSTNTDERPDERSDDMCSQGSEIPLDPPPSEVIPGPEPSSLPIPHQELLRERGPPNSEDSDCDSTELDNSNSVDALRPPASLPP
Sequence of UniProt Q6PHR2 (whole entry, looked up): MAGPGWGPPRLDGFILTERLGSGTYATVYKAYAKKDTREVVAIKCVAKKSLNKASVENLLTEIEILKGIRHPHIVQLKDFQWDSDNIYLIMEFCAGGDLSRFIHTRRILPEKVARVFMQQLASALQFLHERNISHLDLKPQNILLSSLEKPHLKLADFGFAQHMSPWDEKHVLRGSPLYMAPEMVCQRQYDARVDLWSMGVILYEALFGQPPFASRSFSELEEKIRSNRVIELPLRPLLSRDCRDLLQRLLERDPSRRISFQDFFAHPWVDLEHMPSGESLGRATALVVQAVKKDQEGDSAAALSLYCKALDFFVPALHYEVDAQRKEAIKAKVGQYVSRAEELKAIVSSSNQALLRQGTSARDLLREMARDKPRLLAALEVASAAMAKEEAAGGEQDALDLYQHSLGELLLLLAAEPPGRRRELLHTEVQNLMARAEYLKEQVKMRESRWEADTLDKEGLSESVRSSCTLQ

Set 1
SMILES: CCOC(=O)c1cc2cc(-c3cc(C(=O)NCc4ccc(C(=O)O)cc4)nn3C)ccc2[nH]1
Observed: cell-free assay
Technique: competition with immobilised ligand
Tested at: 0.1 µM
target | remaining binding [%]
Atypical kinase COQ8A, mitochondrial (COQ8A, Homo sapiens, UniProt Q8NI60) | 100
Mitogen-activated protein kinase 3 (MAPK3, Homo sapiens, UniProt P27361) | 88
Mitogen-activated protein kinase kinase kinase 12 (MAP3K12, Homo sapiens, UniProt Q12852) | 79
Mitogen-activated protein kinase kinase kinase 6 (MAP3K6, Homo sapiens, UniProt O95382) | 79
Tyrosine-protein kinase ABL1, non-phosphorylated (ABL1, Homo sapiens, UniProt P00519, Q252H) | 92
Mitogen-activated protein kinase 9 (MAPK9, Homo sapiens, UniProt P45984) | 96
Macrophage colony-stimulating factor 1 receptor (CSF1R, Homo sapiens, UniProt P07333) | 100
Serine/threonine-protein kinase TBK1 (TBK1, Homo sapiens, UniProt Q9UHD2) | 84
Serine/threonine-protein kinase ULK3 (ULK3, Homo sapiens, UniProt Q6PHR2) | 100

Set 2
Target: cAMP-dependent protein kinase catalytic subunit PRKX (PRKX, Homo sapiens, UniProt P51817)
Observed: enzyme activity
Action: inhibitor
Tested at: 0.5 µM
Baseline: control
Residues (P51817 1-358): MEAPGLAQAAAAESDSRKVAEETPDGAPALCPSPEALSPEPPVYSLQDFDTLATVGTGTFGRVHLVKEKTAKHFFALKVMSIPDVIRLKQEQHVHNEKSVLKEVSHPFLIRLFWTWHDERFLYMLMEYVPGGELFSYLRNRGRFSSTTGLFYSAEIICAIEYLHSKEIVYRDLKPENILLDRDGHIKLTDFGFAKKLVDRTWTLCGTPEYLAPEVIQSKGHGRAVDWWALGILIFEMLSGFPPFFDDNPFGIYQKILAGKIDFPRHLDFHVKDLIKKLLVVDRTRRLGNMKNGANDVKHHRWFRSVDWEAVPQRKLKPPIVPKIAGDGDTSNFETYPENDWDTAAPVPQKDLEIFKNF
SMILES | remaining activity
O=C(NC(NC(=S)Nc1ccc(F)c([N+](=O)[O-])c1)C(Cl)(Cl)Cl)C(c1ccccc1)c1ccccc1 (centres unmarked) | 106%
O=C1c2ccccc2-c2n[nH]c3cccc1c23 | 89.5%
c1ccc(-c2cnc(Nc3ccc(OCCN4CCCC4)cc3)s2)cc1 | 101%
c1ccc(-c2[nH]ncc2-c2ccnc3ccccc23)nc1 | 102%
COc1cc2ncnc(Nc3ccc(O)c(Br)c3)c2cc1OC | 89.2%
Cc1cc2ncc(-c3ccccc3)nc2cc1C | 97.9%
O=C1C(Cl)=C(N2C(=O)CCC2=O)C(=O)c2ccccc21 | 103%
Ic1cccc(CSc2nnc(-c3ccncc3)o2)c1 | 78.2%
CCN(CC)CCNC(=O)c1c(C)[nH]c(/C=C2\C(=O)Nc3ccc(Cl)cc32)c1C | 83.9%
COc1cc2c(cc1OC)-c1[nH]nc(Nc3cccc(F)c3)c1C2 | 103%
CCN(CC)CCNC(=O)c1c(C)[nH]c(/C=C2\C(=O)Nc3ccc(F)cc32)c1C | 105%
CN(C)C[C@H]1CCn2c(c(C3=C(c4cn(C)c5ccccc45)C(=O)NC3=O)c3ccccc32)C1 | 97.8%
N#C/C(=C\c1ccc(O)c(O)c1)C(=O)NCc1ccccc1 | 99.6%
Nc1cccc(-c2cc3c(Oc4cccc(O)c4)ncnc3[nH]2)c1 | 114%
O=C(Nc1cccc(Nc2nccc(Nc3cccc(C(F)(F)F)c3)n2)c1)C1CC1 | 94.6%
CCN(CC)C(=O)c1ccc(Nc2nc(OCC3CCCCC3)c3[nH]cnc3n2)cc1 | 93.4%
COc1cc2ncnc(Nc3cccc(Cl)c3)c2cc1OC | 92.5%
Cn1nc2c3c(cccc31)C(=O)c1ccccc1-2 | 101%
Cc1cn(-c2cc(NC(=O)c3ccc(C)c(Nc4nccc(-c5cccnc5)n4)c3)cc(C(F)(F)F)c2)cn1 | 109%
CN([C@@H](Cc1ccc(OS(=O)(=O)c2cccc3cnccc23)cc1)C(=O)N1CCN(c2ccccc2)CC1)S(=O)(=O)c1cccc2cnccc12 | 109%
N#Cc1c(NC(=O)c2cccc3ccccc23)sc2c1CCCC2 | 103%
Cc1nc2cc3nc(-c4cccs4)cnc3cc2n1C | 106%
CCOc1nc(NC(=O)Cc2cc(OC)ccc2OC)cc(N)c1C#N | 100%
C[C@@H]1CCN(C(=O)CC#N)C[C@@H]1N(C)c1ncnc2[nH]ccc12 | 110%

Set 3
Cell line: HaCaT
Tested at: 100 µM
Time: 36 h
SMILES | viability [%]
N#Cc1cc(-c2n[nH]c(-c3ccncc3)n2)ccn1 | 89.5
CN1CCC(=C2c3ccccc3CC(=O)c3sccc32)CC1 | 63.4
CC(CN(C)C)CN1c2ccccc2Sc2ccccc21 (centres unmarked) | 6.55
Cc1ccsc1C(=CCCN1CCC[C@@H](C(=O)O)C1)c1sccc1C | 70.7
CC(C)NCC(O)COc1cccc2[nH]ccc12 (centres unmarked) | 91.6
CC[C@H]1OC(=O)[C@H](C)[C@@H](O[C@H]2C[C@@](C)(OC)[C@@H](O)[C@H](C)O2)[C@H](C)[C@@H](O[C@@H]2O[C@H](C)C[C@H](N(C)C)[C@H]2O)[C@](C)(O)C[C@@H](C)C(=O)[C@H](C)[C@@H](O)[C@]1(C)O | 72.1
CCCCN1CCCC[C@H]1C(=O)Nc1c(C)cccc1C | 71.2
O=C(O)C[C@H](O)C[C@H](O)/C=C/c1c(C2CC2)nc2ccccc2c1-c1ccc(F)cc1 | 16.9
Cc1cc(C)cc(OCC2CNC(=O)O2)c1 (centres unmarked) | 91
O=C1CC[C@@H](C(=O)N2CSC[C@H]2C(=O)O)N1 | 88.9
CN(C)CCC(c1ccccc1)c1ccccn1 (centres unmarked) | 83.5

Set 4
Species: mouse
Medium: microsomes or S9
Tested at: 2 µM
Time: 0.5 h
SMILES | remaining compound
Fc1ccc(CNc2nc3ncc(Br)nc3s2)cc1 | 28.3%
CCOc1cc(=O)n2c(c1C(=O)Nc1cc(Cl)c(OC)cc1OC)CCCC2 | 87.4%
Fc1ccccc1-c1cn2c3ccccc3nc2n1CCN1CCCCC1 | 0.0141%
N=c1c2cnn(-c3ccccc3)c2[nH]c(=O)n1-c1ccccc1 | > 100%
COc1cc2c(cc1Nc1ncc(Cl)c(Nc3ccc(C4CCN(C(C)=O)CC4)cc3OC)n1)CCCNC2 | > 100%
OC(CN(c1ccccc1)c1ccccc1)Cn1cnc2ccccc21 (centres unmarked) | < 1%

For quick reference, copied from above (set 2):
SMILES | remaining activity
COc1cc2ncnc(Nc3ccc(O)c(Br)c3)c2cc1OC | 89.2%
CCOc1nc(NC(=O)Cc2cc(OC)ccc2OC)cc(N)c1C#N | 100%
c1ccc(-c2[nH]ncc2-c2ccnc3ccccc23)nc1 | 102%
C[C@@H]1CCN(C(=O)CC#N)C[C@@H]1N(C)c1ncnc2[nH]ccc12 | 110%
CCN(CC)CCNC(=O)c1c(C)[nH]c(/C=C2\C(=O)Nc3ccc(Cl)cc32)c1C | 83.9%
